# Measured values of several laboratories.
# Lines come from different studies, so protocols differ. pEC50, pIC50, pKd, pKi: −log10 of the molar value.
# HLA class I histocompatibility antigen, A alpha chain: HLA class I histocompatibility antigen, A alpha chain (Homo sapiens, UniProt P04439)
# FABP4: Fatty acid-binding protein, adipocyte (FABP4, Homo sapiens, UniProt P15090)
# UniProt P15090, sequence (whole entry, looked up): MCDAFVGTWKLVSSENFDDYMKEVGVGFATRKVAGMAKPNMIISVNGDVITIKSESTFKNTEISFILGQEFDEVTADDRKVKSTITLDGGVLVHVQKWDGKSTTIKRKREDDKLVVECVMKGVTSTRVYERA
# HTR1F: 5-hydroxytryptamine receptor 1F (HTR1F, Homo sapiens, UniProt P30939)
# UniProt P30939, sequence (whole entry, looked up): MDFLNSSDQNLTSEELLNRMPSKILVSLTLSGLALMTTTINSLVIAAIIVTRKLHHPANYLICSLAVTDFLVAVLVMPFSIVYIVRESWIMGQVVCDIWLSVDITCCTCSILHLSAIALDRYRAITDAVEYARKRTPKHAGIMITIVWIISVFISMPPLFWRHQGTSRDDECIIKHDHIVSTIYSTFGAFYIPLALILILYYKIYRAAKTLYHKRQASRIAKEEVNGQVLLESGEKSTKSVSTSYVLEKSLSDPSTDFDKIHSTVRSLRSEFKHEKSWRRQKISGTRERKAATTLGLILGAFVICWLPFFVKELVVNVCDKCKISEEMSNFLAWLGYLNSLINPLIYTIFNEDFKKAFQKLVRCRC
# TEAD4: Transcriptional enhancer factor TEF-3 (TEAD4, Homo sapiens, UniProt Q15561)
# UniProt Q15561, sequence (whole entry, looked up): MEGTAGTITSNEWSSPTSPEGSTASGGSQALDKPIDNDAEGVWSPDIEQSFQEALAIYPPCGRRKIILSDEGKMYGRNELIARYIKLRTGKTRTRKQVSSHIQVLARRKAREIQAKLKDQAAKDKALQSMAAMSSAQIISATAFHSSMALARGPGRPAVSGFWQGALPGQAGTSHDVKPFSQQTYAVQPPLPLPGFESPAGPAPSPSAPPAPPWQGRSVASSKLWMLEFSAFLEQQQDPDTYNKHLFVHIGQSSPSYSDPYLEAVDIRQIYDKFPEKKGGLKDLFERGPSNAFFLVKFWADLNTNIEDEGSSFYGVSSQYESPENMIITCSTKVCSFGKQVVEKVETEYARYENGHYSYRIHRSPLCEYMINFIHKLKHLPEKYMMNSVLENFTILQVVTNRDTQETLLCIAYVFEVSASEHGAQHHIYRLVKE
# UniProt Q9BE39, sequence (whole entry, looked up): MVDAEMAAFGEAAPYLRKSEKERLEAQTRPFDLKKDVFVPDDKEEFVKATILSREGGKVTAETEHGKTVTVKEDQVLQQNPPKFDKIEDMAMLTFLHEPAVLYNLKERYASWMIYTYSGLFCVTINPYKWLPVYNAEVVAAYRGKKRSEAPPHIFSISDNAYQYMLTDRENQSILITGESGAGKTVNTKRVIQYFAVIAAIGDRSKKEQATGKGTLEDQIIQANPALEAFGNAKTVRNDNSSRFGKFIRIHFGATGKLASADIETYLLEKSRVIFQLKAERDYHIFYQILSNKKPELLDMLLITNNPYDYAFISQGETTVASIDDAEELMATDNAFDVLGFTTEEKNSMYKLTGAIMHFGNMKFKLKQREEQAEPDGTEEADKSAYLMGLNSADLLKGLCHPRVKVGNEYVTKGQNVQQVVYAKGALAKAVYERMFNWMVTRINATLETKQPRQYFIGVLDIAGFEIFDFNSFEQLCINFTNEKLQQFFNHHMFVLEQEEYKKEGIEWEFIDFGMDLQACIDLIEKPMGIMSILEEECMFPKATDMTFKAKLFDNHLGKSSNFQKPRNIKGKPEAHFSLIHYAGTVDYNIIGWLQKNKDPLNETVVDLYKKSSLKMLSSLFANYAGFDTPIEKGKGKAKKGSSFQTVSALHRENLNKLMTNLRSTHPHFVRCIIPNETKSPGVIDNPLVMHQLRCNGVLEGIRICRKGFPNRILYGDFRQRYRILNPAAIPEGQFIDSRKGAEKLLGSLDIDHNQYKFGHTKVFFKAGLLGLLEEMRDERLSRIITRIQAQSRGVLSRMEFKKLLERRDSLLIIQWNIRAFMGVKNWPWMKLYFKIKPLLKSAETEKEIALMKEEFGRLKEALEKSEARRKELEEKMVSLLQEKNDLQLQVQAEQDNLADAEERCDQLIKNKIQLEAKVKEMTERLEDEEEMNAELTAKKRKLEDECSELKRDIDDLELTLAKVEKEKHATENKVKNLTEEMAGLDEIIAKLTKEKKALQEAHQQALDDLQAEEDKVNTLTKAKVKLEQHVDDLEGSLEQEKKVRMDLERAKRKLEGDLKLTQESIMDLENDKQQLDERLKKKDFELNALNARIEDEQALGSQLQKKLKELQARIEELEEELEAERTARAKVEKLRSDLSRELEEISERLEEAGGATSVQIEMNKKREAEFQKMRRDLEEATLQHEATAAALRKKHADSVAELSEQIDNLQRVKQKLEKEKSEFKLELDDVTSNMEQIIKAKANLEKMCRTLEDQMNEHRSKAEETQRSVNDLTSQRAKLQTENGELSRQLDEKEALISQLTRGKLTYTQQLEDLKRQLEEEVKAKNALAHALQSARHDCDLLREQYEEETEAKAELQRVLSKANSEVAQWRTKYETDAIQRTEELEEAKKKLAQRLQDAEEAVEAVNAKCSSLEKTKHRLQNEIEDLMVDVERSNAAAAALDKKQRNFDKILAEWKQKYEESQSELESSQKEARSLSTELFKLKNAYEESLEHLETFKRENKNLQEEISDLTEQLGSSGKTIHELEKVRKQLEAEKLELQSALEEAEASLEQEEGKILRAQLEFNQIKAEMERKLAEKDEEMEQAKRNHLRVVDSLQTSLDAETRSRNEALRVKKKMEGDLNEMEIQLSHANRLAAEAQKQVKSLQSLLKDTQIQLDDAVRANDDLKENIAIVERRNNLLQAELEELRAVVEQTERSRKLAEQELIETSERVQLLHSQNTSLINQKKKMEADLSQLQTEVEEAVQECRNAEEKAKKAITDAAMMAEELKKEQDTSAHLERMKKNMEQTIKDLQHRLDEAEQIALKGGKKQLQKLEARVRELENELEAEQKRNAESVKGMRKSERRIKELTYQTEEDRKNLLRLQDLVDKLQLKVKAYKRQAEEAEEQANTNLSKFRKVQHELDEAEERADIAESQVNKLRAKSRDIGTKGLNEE
# UniProt P30048, sequence (whole entry, looked up): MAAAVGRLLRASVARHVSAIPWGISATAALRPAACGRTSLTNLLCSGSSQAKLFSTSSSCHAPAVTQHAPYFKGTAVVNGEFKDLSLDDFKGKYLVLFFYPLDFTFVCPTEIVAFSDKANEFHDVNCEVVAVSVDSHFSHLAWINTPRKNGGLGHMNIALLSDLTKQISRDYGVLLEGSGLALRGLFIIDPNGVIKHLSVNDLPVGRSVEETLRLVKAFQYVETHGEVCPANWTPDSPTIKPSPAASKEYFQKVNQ
# UniProt P11229, sequence (whole entry, looked up): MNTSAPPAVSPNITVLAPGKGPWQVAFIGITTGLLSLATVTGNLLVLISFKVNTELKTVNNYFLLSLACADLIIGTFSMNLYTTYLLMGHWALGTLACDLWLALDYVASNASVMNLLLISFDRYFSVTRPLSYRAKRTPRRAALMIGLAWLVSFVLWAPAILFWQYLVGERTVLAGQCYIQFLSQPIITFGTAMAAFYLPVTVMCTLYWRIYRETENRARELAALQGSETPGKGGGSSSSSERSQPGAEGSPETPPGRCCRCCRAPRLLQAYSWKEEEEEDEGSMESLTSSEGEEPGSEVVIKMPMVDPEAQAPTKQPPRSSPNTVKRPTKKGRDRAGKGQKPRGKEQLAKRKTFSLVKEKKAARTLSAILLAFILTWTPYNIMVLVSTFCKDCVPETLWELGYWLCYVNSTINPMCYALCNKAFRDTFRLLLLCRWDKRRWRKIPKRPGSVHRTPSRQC
# UniProt Q15835, sequence (whole entry, looked up): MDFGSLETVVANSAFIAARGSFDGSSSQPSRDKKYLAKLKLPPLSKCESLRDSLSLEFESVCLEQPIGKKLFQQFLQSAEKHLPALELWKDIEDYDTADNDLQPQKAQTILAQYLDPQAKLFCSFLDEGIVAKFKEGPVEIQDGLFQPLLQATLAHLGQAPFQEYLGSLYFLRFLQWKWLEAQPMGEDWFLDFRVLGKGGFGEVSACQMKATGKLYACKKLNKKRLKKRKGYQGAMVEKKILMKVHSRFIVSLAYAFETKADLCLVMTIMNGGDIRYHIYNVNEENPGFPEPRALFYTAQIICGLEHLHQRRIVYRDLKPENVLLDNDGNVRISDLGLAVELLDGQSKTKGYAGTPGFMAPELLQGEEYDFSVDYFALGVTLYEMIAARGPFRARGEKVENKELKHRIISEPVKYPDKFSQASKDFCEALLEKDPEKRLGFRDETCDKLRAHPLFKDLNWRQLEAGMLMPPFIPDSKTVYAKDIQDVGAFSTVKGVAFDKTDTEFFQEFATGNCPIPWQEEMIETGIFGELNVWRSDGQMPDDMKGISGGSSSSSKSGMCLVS
# UniProt Q9UGM1, sequence (whole entry, looked up): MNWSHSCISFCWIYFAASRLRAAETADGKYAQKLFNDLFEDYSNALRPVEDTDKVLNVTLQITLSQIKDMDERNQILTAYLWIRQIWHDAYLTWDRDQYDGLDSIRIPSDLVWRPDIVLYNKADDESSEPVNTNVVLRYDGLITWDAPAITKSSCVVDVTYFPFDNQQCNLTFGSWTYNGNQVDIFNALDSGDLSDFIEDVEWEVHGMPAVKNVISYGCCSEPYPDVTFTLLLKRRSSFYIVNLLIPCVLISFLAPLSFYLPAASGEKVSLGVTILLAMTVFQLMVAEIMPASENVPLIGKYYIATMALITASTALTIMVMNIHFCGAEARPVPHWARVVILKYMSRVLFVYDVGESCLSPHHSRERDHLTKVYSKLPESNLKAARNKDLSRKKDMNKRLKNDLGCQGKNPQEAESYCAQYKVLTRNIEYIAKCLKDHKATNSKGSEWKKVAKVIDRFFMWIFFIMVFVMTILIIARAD
# UniProt Q96LB1, sequence (whole entry, looked up): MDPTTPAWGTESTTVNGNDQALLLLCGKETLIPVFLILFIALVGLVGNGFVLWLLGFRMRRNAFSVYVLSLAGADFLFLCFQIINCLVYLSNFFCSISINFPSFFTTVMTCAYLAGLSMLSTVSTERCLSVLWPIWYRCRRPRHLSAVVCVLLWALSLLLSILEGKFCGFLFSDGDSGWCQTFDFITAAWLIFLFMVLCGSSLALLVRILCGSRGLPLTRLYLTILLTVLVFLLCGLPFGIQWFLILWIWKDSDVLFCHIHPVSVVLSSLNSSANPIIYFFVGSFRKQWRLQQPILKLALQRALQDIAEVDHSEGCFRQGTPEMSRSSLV
SMILES,target,test,setting,quantity,result
CC(C)[C@H](NC(=O)[C@@H](N)Cc1ccc(O)cc1)C(=O)N[C@@H](Cc1ccc(O)cc1)C(=O)N[C@@H](CCC(N)=O)C(=O)N[C@@H](Cc1c[nH]cn1)C(=O)N1CCC[C@H]1C(=O)N[C@@H](Cc1c[nH]cn1)C(=O)N[C@H](C(=O)N[C@@H](Cc1ccc(O)cc1)C(=O)O)[C@@H](C)O,"HLA class I histocompatibility antigen, A alpha chain",cell-free assay,,pIC50,6.97
CSCC[C@H](NC(=O)[C@H](Cc1ccccc1)NC(=O)CNC(=O)CNC(=O)[C@@H](N)Cc1ccc(O)cc1)C(=O)N[C@@H](CCCNC(=N)N)C(=O)N[C@@H](CCCNC(=N)N)C(=O)N[C@H](C(=O)NCC(=O)N[C@@H](CCCNC(=N)N)C(=O)N1CCC[C@H]1C(=O)N[C@@H](CCC(=O)O)C(=O)N[C@@H](Cc1c[nH]c2ccccc12)C(=O)N[C@@H](Cc1c[nH]c2ccccc12)C(=O)N[C@@H](CCSC)C(=O)N[C@@H](CC(=O)O)C(=O)N[C@@H](Cc1ccc(O)cc1)C(=O)N[C@@H](CCC(N)=O)C(=O)N[C@@H](CCCCN)C(=O)N[C@@H](CCCNC(=N)N)C(=O)N[C@@H](Cc1ccc(O)cc1)C(=O)NCC(=O)O)C(C)C,"MRGPRX2 (Homo sapiens, UniProt Q96LB1)","calcium signal, agonist",,pEC50,5.10
Ic1cccc(-c2noc(C[C@@H]3CN4CCC3CC4)n2)c1,"CHRNA9 (Homo sapiens, UniProt Q9UGM1)","ion current, agonist, two-electrode voltage clamp",oocytes,pEC50,4.61
NS(=O)(=O)C(F)(F)C(F)(F)C(F)(F)C(F)(F)C(F)(F)C(F)(F)C(F)(F)C(F)(F)F,FABP4,"ligand displacement, fluorescence",,pKi,5.16
Cc1ccc2c(c1)C(=O)C1(O)CCN(c3ccccc3)C1=N2 (stereo not drawn),"Myosin-7 (MYH7, Bos taurus, UniProt Q9BE39)","ATPase activity, inhibitor",,pKi,5.72
CC[C@H]1CN2CCc3c([nH]c4ccccc34)[C@H]2C[C@@H]1/C(=C\OC)C(=O)OC,"PRDX3 (Homo sapiens, UniProt P30048)","binding, SPR",,pKd,5.72
CC(C)[C@@H](Nc1nc(Cl)nc2c1ncn2[C@H]1[C@H](O)[C@H](O)[C@]2(CN)C[C@H]12)C1CC1,"HTR2B (Homo sapiens, UniProt P41595)","ligand displacement, radioligand",,pKi,6.33
c1ccc2nc(N3CCNCC3)ccc2c1,HTR1F,"G protein activation, agonist, BRET",,pEC50,5.50
CC[C@H](C)[C@H](NC(=O)[C@@H](N)CCCCN)C(=O)N[C@@H](Cc1ccccc1)C(=O)N1CCC[C@H]1C(=O)N[C@@H](CCCCN)C(=O)N1CCC[C@H]1C(=O)N[C@@H](CC(C)C)C(=O)N[C@@H](Cc1ccc(O)cc1)C(=O)N[C@@H](CCSC)C(=O)O,"HLA class I histocompatibility antigen, A alpha chain",cell-free assay,,pIC50,6.82
CSCC[C@H](NC(=O)[C@H](CCCNC(=N)N)NC(=O)[C@@H](N)C(C)C)C(=O)N[C@@H](CCCNC(=N)N)C(=O)N[C@@H](CC(C)C)C(=O)N[C@@H](CCCNC(=N)N)C(=O)N[C@@H](CCCCN)C(=O)N[C@@H](CC(C)C)C(=O)N[C@@H](CCCNC(=N)N)C(=O)N[C@@H](C)C(=O)N[C@@H](CO)C(=O)N[C@@H](Cc1ccccc1)C(=O)N[C@@H](Cc1ccccc1)C(=O)N[C@@H](CCCCN)C(=O)N[C@@H](CCC(N)=O)C(=O)N1CCC[C@H]1C(=O)N[C@@H](CCC(=O)O)C(=O)O,TEAD4,"binding, SPR",pH 7.4,pKd,5.07
CC[C@H](C)[C@H](NC(=O)[C@@H](N)Cc1c[nH]cn1)C(=O)N[C@@H](Cc1ccccc1)C(=O)N[C@@H](CO)C(=O)N[C@@H](CCCNC(=N)N)C(=O)N1CCC[C@H]1C(=O)N[C@@H](CCSC)C(=O)N[C@H](C(=O)N[C@@H](Cc1ccccc1)C(=O)O)[C@@H](C)O,"HLA class I histocompatibility antigen, A alpha chain",cell-free assay,,pIC50,5.54
CSCC[C@H](NC(=O)[C@@H]1CCCN1C(=O)[C@@H](N)C(C)C)C(=O)N[C@@H](CCCNC(=N)N)C(=O)N[C@@H](CC(C)C)C(=O)N[C@@H](CCCNC(=N)N)C(=O)N[C@@H](CCCCN)C(=O)N[C@@H](CCSC)C(=O)N1CCC[C@H]1C(=O)N[C@@H](C)C(=O)N[C@@H](CO)C(=O)N[C@@H](Cc1ccccc1)C(=O)N[C@@H](Cc1ccccc1)C(=O)N[C@@H](CCCCN)C(=O)N1CCC[C@H]1C(=O)N1CCC[C@H]1C(=O)N[C@@H](CCC(=O)O)C(=O)O,TEAD4,"binding, SPR",pH 7.4,pKd,4.32
COC(CNC(=O)c1ccccc1OCC(=O)O)[CH2][Hg][OH] (stereo not drawn),"SLC25A13 (Homo sapiens, UniProt Q9UJS0)","binding, ITC",,pKd,> 6.00
O=C(O)C(F)(F)C(F)(F)C(F)(F)F,FABP4,"ligand displacement, fluorescence",,pKi,2.93
COc1cc2c(cc1OC)CN(CCc1ccc(NC(=O)c3cccc4c(=O)c5cccc(OC)c5[nH]c34)cc1)CC2,"CHRM1 (Homo sapiens, UniProt P11229)",cell-free assay,,pKi,6.38
CC(C)C[C@H](NC(=O)[C@H](CCCCN)NC(=O)[C@H](CCCNC(=N)N)NC(=O)[C@H](CC(C)C)NC(=O)[C@H](CCCNC(=N)N)NC(=O)[C@H](CCCNC(=N)N)NC(=O)[C@@H]1CCCN1C(=O)[C@@H](N)C(C)C)C(=O)N[C@@H](CCCNC(=N)N)C(=O)N[C@@H](C)C(=O)N[C@@H](CO)C(=O)N[C@@H](Cc1ccccc1)C(=O)N[C@@H](Cc1ccccc1)C(=O)N[C@@H](CCCCN)C(=O)N1CCC[C@H]1C(=O)N1CCC[C@H]1C(=O)N[C@@H](CCC(=O)O)C(=O)O,TEAD4,"binding, SPR",pH 7.4,pKd,4.94
CC(C)C[C@H](NC(=O)[C@H](CCC(N)=O)NC(=O)[C@H](CCCNC(=N)N)NC(=O)[C@H](CO)NC(=O)[C@H](Cc1ccc(O)cc1)NC(=O)[C@H](CC(C)C)NC(=O)[C@@H](N)CCCNC(=N)N)C(=O)N[C@@H](Cc1c[nH]cn1)C(=O)N[C@@H](Cc1ccccc1)C(=O)O,"HLA class I histocompatibility antigen, A alpha chain",cell-free assay,,pIC50,8.21
[2H]c1c([2H])c([C@]2([2H])CCCN2C(=O)C(C)(C)Oc2ccc3cn[nH]c3c2)c([2H])c([2H])c1C([2H])([2H])[2H],"GRK1 (Homo sapiens, UniProt Q15835)","binding, competition with immobilised ligand",1 µM,remaining binding,76%
CC[C@H](C)[C@H](NC(=O)[C@H](Cc1c[nH]cn1)NC(=O)CNC(=O)[C@H](Cc1ccccc1)NC(=O)[C@H](CC(C)C)NC(=O)[C@@H](N)CCCNC(=N)N)C(=O)N[C@H](C(=O)N[C@@H](CCC(=O)O)C(=O)N[C@@H](Cc1ccc(O)cc1)C(=O)O)[C@@H](C)O,"HLA class I histocompatibility antigen, A alpha chain",cell-free assay,,pIC50,8.29
COc1ccc2cccc(C(CO)CNC(=O)CF)c2c1 (stereo not drawn),"MTNR1A (Homo sapiens, UniProt P48039)","β-arrestin recruitment, agonist",,pEC50,8.57
CC[C@H](C)[C@H](NC(=O)[C@@H]1CCCN1C(=O)[C@H](CCCCN)NC(=O)[C@@H]1CCCN1C(=O)[C@H](CCSC)NC(=O)[C@H](CCC(N)=O)NC(=O)[C@@H](N)Cc1ccc(O)cc1)C(=O)N[C@H](C(=O)N[C@@H](Cc1ccccc1)C(=O)O)[C@@H](C)O,"HLA class I histocompatibility antigen, A alpha chain",cell-free assay,,pIC50,5.24
CCN(CC)C(=O)N[C@H]1C[C@@H]2c3cccc4[nH]cc(c34)C[C@H]2N(C)C1,HTR1F,"G protein activation, agonist, BRET",,pEC50,6.35
CC[C@H](NC(=O)OCc1ccccc1)C(=O)N[C@H](C(=O)N[C@@H](Cc1ccccc1)C(=O)N(C)N(C#N)CCC(N)=O)C(C)(C)C,"Cathepsin B (CTSB, Homo sapiens, UniProt P07858)","enzyme activity, inhibitor",,pKi,7.44
CC(C)C[C@H](NC(=O)[C@@H](N)CCCCN)C(=O)N[C@@H](Cc1ccccc1)C(=O)N[C@@H](CO)C(=O)N[C@@H](CCCNC(=N)N)C(=O)N1CCC[C@H]1C(=O)N[C@@H](CC(C)C)C(=O)N[C@H](C(=O)N[C@@H](Cc1ccccc1)C(=O)O)[C@@H](C)O,"HLA class I histocompatibility antigen, A alpha chain",cell-free assay,,pIC50,7.68

# For quick reference, copied from above:
SMILES,target,test,setting,quantity,result
CC[C@H](C)[C@H](NC(=O)[C@H](Cc1c[nH]cn1)NC(=O)CNC(=O)[C@H](Cc1ccccc1)NC(=O)[C@H](CC(C)C)NC(=O)[C@@H](N)CCCNC(=N)N)C(=O)N[C@H](C(=O)N[C@@H](CCC(=O)O)C(=O)N[C@@H](Cc1ccc(O)cc1)C(=O)O)[C@@H](C)O,"HLA class I histocompatibility antigen, A alpha chain",cell-free assay,,pIC50,8.29
CCN(CC)C(=O)N[C@H]1C[C@@H]2c3cccc4[nH]cc(c34)C[C@H]2N(C)C1,HTR1F,"G protein activation, agonist, BRET",,pEC50,6.35
O=C(O)C(F)(F)C(F)(F)C(F)(F)F,FABP4,"ligand displacement, fluorescence",,pKi,2.93
